Assay results gathered from unrelated publications.
Lines come from different studies, so protocols differ. Values joined by “and” are separate records of one study, mostly repeats; a detail may differ. Numbers after ± are the reported error.

SMILES	test	system	setting	how to read	measurement	value
NC(=O)c1cnc2[nH]ccc2c1N[C@@H]1[C@@H]2CC3C[C@H]1C[C@@](O)(C3)C2	CD8+ effector T cells, flow cytometry	Caucasian humans, peripheral blood	200 mg single dose	reference: baseline	percent change	0.47%
c1ccc(-c2noc(NCc3cccs3)n2)cc1	CoA-CPM signal reduction, CPM fluorescence thiol	cell-free biochemical	assay interference counter-screen, together with: CoA replacing acetyl-CoA		IC50	> 125 µM
CC(c1cc2ccccc2s1)N(O)C(N)=O (stereo not drawn)	item: 14-HDHA	human whole blood	3 µM, together with: Escherichia coli		amount	1540 ± 366 pg/mL blood
Cn1cc(Nc2nccc(-c3ccc4c(c3)CN(C3COC3)CC[C@H]4NC(=O)c3cn(C(C)(C)C)nn3)n2)cn1	item: Myc Mediated Apoptosis Signaling	splenic B cells, mouse	in vivo, 30 mg/kg, IgD-activated B cells	reference: vehicle, positive = activation	pathway activation z-score	0.302
C[C@@H](NC(=O)N1C(=O)[C@H](Cc2ccnc(N)c2)[C@H]1C(=O)O)C1CCCCC1		human	iv infusion, 0.3 mg/kg/h, 24 h	reference: baseline	time to aPTT Emax	84 h
CC1(C)C=C(CNc2ccc3c(c2)Cc2cc(Br)ccc2-3)C(C)(C)N1[O]	MRI, MSME	wild-type mice, brain	iv, 3 mg/kg, 24 h		T2 relaxation time	31 ms
CC1=NN(c2ccccc2)C(=O)C1		rat, MCAO/R model	intravenous, dose not given, daily dosing, measured day 3 after surgery		cerebral blood flow	102%
C[C@H](Oc1ccc(Br)cc1-c1ccon1)C(=O)O	handgrip dynamometry	healthy human males	200 mg once daily, multiple doses	reference: placebo	maximum voluntary grip contraction	4.13 kg
C[C@@H]1CCC[C@H](n2cnc(-c3cc(Cl)ccc3-n3cc(Cl)nn3)cc2=O)c2cc(ccn2)-c2c(cnn2C(F)F)NC1=O		pooled normal human plasma	IC1.5× aPTT, Actin FS reagent		concentration for aPTT prolongation	70 nM
C[C@@H](O)CCOC(=O)C[C@@H](C)O	item: C10:3 acylcarnitine	human, plasma	60 min, log2-transformed values		metabolite level	-3.19 ± 0.77 µmol/L
Cn1ccnc1-c1noc(N)n1	CoA-CPM signal reduction, CPM fluorescence thiol	cell-free biochemical	assay interference counter-screen, together with: CoA replacing acetyl-CoA		IC50	> 125 µM
CN(C)C(=O)c1cc2cnc(Nc3ccc(N4CCNCC4)cn3)nc2n1C1CCCC1	RNA-seq GSEA, item: HALLMARK_MYC_TARGETS gene set	MB002 tumour	concentration not given	reference: vehicle, direction not given	enrichment score	0.534
COc1cc2cc(-c3ccc(CC(=O)Nc4cc(C(C)(C)C(F)(F)F)no4)cn3)cnc2cc1OC	RECIST v1.1	human RET fusion-positive NSCLC	75 mg, phase I		best overall response PR	42%
Cc1c(C)c2c(c(C)c1O)CCC(C)(C(=O)O)O2 (stereo not drawn)	ABTS	DMSO	concentration not given		ABTS radical cation scavenging	98.1 ± 0.48%
O=S1(=O)C=C(N2CCC3(CC2)OCCO3)c2ccccc21	CoA-CPM signal reduction, CPM fluorescence thiol	cell-free biochemical	assay interference counter-screen, together with: CoA replacing acetyl-CoA		IC50	> 125 µM
N#Cc1ccc2c(c1)[C@H]1CCCN(C(=O)c3ccc4[nH]cnc4c3)[C@H]1C2	item: FPG	human	240 mg once daily, day 28, adjusted mean	reference: placebo	change from baseline	5.9 mg/dL
CC(C)c1c(C(=O)Nc2ccccc2)c(-c2ccccc2)c(-c2ccc(F)cc2)n1CC[C@@H](O)C[C@@H](O)CC(=O)O		cynomolgus monkey, male, serum	40 mg/kg or 25 mg/kg, day 176, 4224 h		triglycerides	54.3 mg/dL
CC[C@H](C)/C=C/C(=O)N1C[C@@H](C)C[C@H]1C(=O)N[C@@H](CCC1CCCCC1)C(=O)N[C@@H](CC(C)C)C(=O)NC(C)(C)C(=O)N[C@@H](CC(C)C)C(=O)N[C@@H](CC(C)C)C(=O)NC(C)(C)C(=O)NC(C)(C)C(=O)NCCC(=O)N[C@@H](C)CN(C)C		small unilamellar vesicles	concentration not given		calcein leakage	31.2%
CC(C)NCC(O)c1ccc(O)c(O)c1 (stereo not drawn)		ventricular cardiomyocytes, C57BL/6 mouse	dose not given, 0.26 s		sarcomere length	1.65 µm
CCN1[C@@H](C(=O)NC23CCC(C(=O)O)(CC2)CC3)[C@H](c2cccc(Cl)c2F)[C@]2(C(=O)Nc3cc(Cl)ccc32)C12CCCCC2		human, advanced solid tumours	dose not given, sample B assessable patients		confirmed partial response rate	10%
N#CCC1CCN(c2nc(Nc3ccc(N4CCC(O)CC4)cc3)c3c(=O)[nH]ncc3n2)CC1	Olink multiplex	human, serum	80 mg, day 15, unit not given	reference: baseline	IL-18 level change	-1.37
COc1cc(-c2ccccc2)ncc1C(=O)Nc1ccc2c(=O)[nH]c(-c3ccc(C(C)(C)O)cc3)nc2c1	RNA-seq GSEA, item: HALLMARK_MYC_TARGETS_V2	organoids, small intestinal, Apc Q1405X, mouse	dose not given, wild-type organoids	reference: DMSO, direction not given	normalized enrichment score	-1
CC(C)C[C@H](NC(=O)[C@H](CC(C)C)NC(=O)[C@H](Cc1c[nH]c2ccccc12)NC(=O)[C@H](CCC(=O)O)NC(=O)[C@@H](NC(=O)[C@H](Cc1ccccc1)NC(=O)[C@H](CCC(=O)O)NC(=O)[C@H](CCCCNC(=O)COCCOCCNC(=O)COCCOCCNC(=O)CC[C@H](NC(=O)CCCCCCCCCCCCCCCCCCC(=O)O)C(=O)O)NC(=O)[C@H](C)NC(=O)[C@H](CCCCN)NC(=O)[C@H](CCCCN)NC(=O)[C@H](CCC(=O)O)NC(=O)[C@H](CC(=O)O)NC(=O)[C@H](CC(C)C)NC(=O)[C@H](Cc1ccc(O)cc1)NC(=O)[C@H](CCCCN)NC(=O)[C@H](CO)NC(=O)[C@H](Cc1ccc(O)cc1)NC(=O)[C@H](CC(=O)O)NC(=O)[C@H](CO)NC(=O)[C@@H](NC(=O)[C@H](Cc1ccccc1)NC(=O)[C@@H](NC(=O)CNC(=O)[C@H](CCC(N)=O)NC(=O)C(C)(C)NC(=O)[C@@H](N)Cc1c[nH]cn1)[C@@H](C)O)[C@@H](C)O)C(C)C)C(=O)N[C@@H](CCC(=O)O)C(=O)NCC(=O)NCC(=O)N1CCC[C@H]1C(=O)N[C@@H](CO)C(=O)N[C@@H](CO)C(=O)NCC(N)=O	item: glucagon	human, fasting plasma	concentration not given, day 134, LS mean	reference: baseline	change from baseline	-14.5 pmol/L
C[C@H]1C[C@H]2CSC(N)=N[C@@]2(c2nc(NC(=O)c3ccc(OC(F)F)cn3)cs2)CO1	item: Aβ1-40	healthy adults, plasma	50 mg once daily, day 4	reference: placebo	percent change from baseline	-87%
c1ccc(-c2n[nH]cc2-c2ccnc3ccccc23)nc1	kinase binding, competitor, MIB/MS competition, item: IRE1	Candida albicans cell lysate	10 µM	reference: DMSO	log2 fold change	1.62
CC1=CS(=O)(=O)c2ccccc21	CoA-CPM signal reduction, CPM fluorescence thiol	cell-free biochemical	assay interference counter-screen, together with: CoA replacing acetyl-CoA		IC50	> 125 µM

SMILES	test	system	setting	how to read	measurement	value
CO[C@H]1C[C@@H]2CC[C@@H](C)[C@@](O)(O2)C(=O)C(=O)N2CCCC[C@H]2C(=O)O[C@H]([C@H](C)C[C@@H]2CC[C@@H](O)[C@H](OC)C2)CC(=O)[C@H](C)/C=C(\C)[C@@H](O)[C@@H](OC)C(=O)[C@H](C)C[C@H](C)/C=C/C=C/C=C/1C		healthy adult horses, blood	intravenous, 0.06 mg/kg, 120 min, oral glucose test 4 h post-dose		blood glucose concentration	158 mg/dL
Cc1ccc(S(=O)(=O)N(CC#N)C(=O)Cc2cc(C(F)(F)F)cc(C(F)(F)F)c2)cc1	HPLC-MS		pH 10.2, together with: 50 mM N-α-acetyl-lysine		pseudo-first-order rate constant	6.6 h⁻¹
O=C1O[C@H]([C@@H](O)CO)C(O)=C1O	hydroxyl radical scavenging		120 µM		inhibition	47.9%
CN(C)C(=O)Oc1cccc([N+](C)(C)C)c1	neuromuscular block reversal	rat	dose not given, 16 (unit not given), together with: cisatracurium	reference: T1 twitch	train-of-four ratio	96.5
COc1ccccc1[C@H](Cn1c(=O)n(C(C)(C)C(=O)O)c(=O)c2c(C)c(-c3ncco3)sc21)OC1CCOCC1	[1-13C]acetate infusion, isotopomer analysis	overweight or obese healthy men, plasma VLDL-TG palmitate	oral, 50 mg single dose, 8 h post-dose, together with: oral fructose		fractional hepatic DNL	12 % new palmitate
NCC(=O)Nc1cncc(-c2nn3c(=O)cc(N4CCNCC4)nc3s2)c1	ADP-induced platelet aggregation, light transmission aggregometry	human, stable CAD on aspirin, platelets ex vivo	subcutaneous, 0.075 mg/kg, 60 min post-dose, together with: ADP 20 µM		inhibition	63.1%
FC(F)(F)Oc1cccc(-c2cnc3ccc(-c4ccncc4)nn23)c1		mouse, MDA-MB-231-Luc xenograft	30 mg/kg, start		tumour bioluminescence	1.77e+10 photons/s and 1.4e+10 photons/s and 2.28e+10 photons/s and 4.61e+09 photons/s and 4.96e+09 photons/s
N#Cc1ccc2c(c1)[C@H]1CCCN(C(=O)c3ccc4[nH]cnc4c3)[C@H]1C2		T2DM patients with overweight or obesity, urine	oral, 10 mg, day 14, 0-24 h, multiple dosing, adjusted geometric mean	reference: baseline day -1, -24-0 h	total urinary corticosteroid excretion	223%
Cc1cn(-c2ccc3n(c2=O)CCN([C@@H](C)[C@@H]2CC[C@H](c4cc(F)c(Cl)cc4C(F)(F)F)O2)C3=O)cn1		human, CSF	300 mg single dose, serial CSF sampling	reference: placebo and baseline	maximum CSF Aβ38 increase	46%
OC(CCN1CCCCC1)(c1ccccc1)C1CC2C=CC1C2 (stereo not drawn)	resting-state EEG	healthy elderly humans	oral, 2 mg, eyes open, LS mean	reference: baseline	change in EEG Beta2-power Pz-O2	5.7%
Cn1cc([C@H]2C[C@H]3CSC(N)=N[C@@]3(c3ccc(F)cc3F)CO2)cn1	item: Aβx-40	Mus musculus wild-type, cerebrospinal fluid	subcutaneous, 50 mg/kg, 9 h		Aβ40 level	0.4 ng/mL
O=C(CCc1ccccc1Cl)NC1CS(=O)(=O)c2ccccc21 (stereo not drawn)	CoA-CPM signal reduction, CPM fluorescence thiol	cell-free biochemical	assay interference counter-screen, together with: CoA replacing acetyl-CoA		IC50	> 125 µM
Cl.N[C@@H](Cc1ccc(Oc2nnc(-c3ccccc3)nn2)cc1)C(=O)O	iEDDA cycloaddition	aqueous DMSO 25 %	37 °C, together with: TCO-OH 350 µM		kobs	0.03 s⁻¹
O=C(O)CNC(=O)Cc1ccccc1		ventricular cardiomyocytes, C57BL/6 mouse	dose not given, 0.152 s		sarcomere length	1.66 µm
O=S1(=O)C=C(N2CCOCC2)c2ccccc21	CoA-CPM signal reduction, CPM fluorescence thiol	cell-free biochemical	assay interference counter-screen, together with: CoA replacing acetyl-CoA		IC50	> 125 µM
CO[C@@H]1[C@@H](OC(N)=O)[C@@H](O)[C@H](Oc2ccc3c(O)c(NC(=O)c4ccc(O)c(CC=C(C)C)c4)c(=O)oc3c2C)OC1(C)C		Brca1 cc/cc MEFs, mouse	100 µM		colony survival	78.3% and 70.2% and 55.8% and 41.2%
CN(C)C(=O)Nc1cccc(-c2ccc(N(C)C)cc2)c1	qPCR, item: Srebf1	high-fat diet-fed mice, liver	dose not given	reference: vehicle-treated obese mice	relative mRNA level	0.998 and 0.82 and 1.05 and 1.21 and 0.914
N#Cc1ccc2c(-c3ccncc3)c(-c3ccc(F)cc3)nn2c1	kinase binding, competitor, MIB/MS competition, item: HRR25	Candida albicans cell lysate	100 nM	reference: DMSO	log2 fold change	-0.339
C=CC(=O)Nc1cc(Nc2nccc(Nc3cc(Cl)c(F)cc3C(C)(C)O)n2)c(OC)cc1N1CC[C@@H](N(C)C)C1		human, EGFR exon20ins NSCLC	dose not given, dose 100 mg and above		confirmed objective response rate	39.6%
Cc1n[nH]c2ccc(-c3cc(OC[C@@H](N)Cc4ccccc4)cnc3-c3ccoc3)cc12	kinase binding, competitor, MIB/MS competition, item: HSL1	Candida albicans cell lysate	1 µM	reference: DMSO	log2 fold change	0.197
Fc1cccc(Nc2nc(-c3ccccc3)no2)c1	CoA-CPM signal reduction, CPM fluorescence thiol	cell-free biochemical	assay interference counter-screen, together with: CoA replacing acetyl-CoA		IC50	> 125 µM
CC1(C)CCC(c2ccc(Cl)cc2)=C(CN2CCN(c3ccc(C(=O)NS(=O)(=O)c4ccc(N[C@H](CCN5CCOCC5)CSc5ccccc5)c(S(=O)(=O)C(F)(F)F)c4)cc3)CC2)C1	cell killing	canine blood CD3+ T cells, dog 39	24 h		EC50	0.222 µM
C[C@H]1O[C@@H](O[C@H]2CC[C@@]3(C)[C@@H](CC[C@]4(C)[C@@H]3C=C[C@]35OC[C@@]6(CCC(C)(C)C[C@H]63)[C@@H](O)C[C@]54C)[C@]2(C)CO)[C@H](O)[C@@H](O[C@@H]2O[C@H](CO)[C@@H](O)[C@H](O)[C@H]2O)[C@H]1O		chronic-plus-binge ethanol mice, plasma	oral, 15 mg/kg/day for 7 d, 168 h		AST activity	41.4 U/L and 34.5 U/L and 43.3 U/L and 43.7 U/L and 44 U/L
CSCCNc1nc(SCCC(F)(F)F)nc2c1ncn2[C@@H]1O[C@H](COP(=O)(O)OP(=O)(O)C(Cl)(Cl)P(=O)(O)O)[C@@H](O)[C@H]1O	ADP-induced platelet aggregation, Multiplate, AUC >46 U	human patients, whole blood	dose not given, 4 to 6 h		patients with high reactivity	48.5%
[Cl-].[Cl-].[Ru+2].c1cnc2c(c1)ccc1cccnc12.c1cnc2c(c1)ccc1cccnc12.c1csc(-c2nc3c4cccnc4c4ncccc4c3[nH]2)c1		air-saturated acetonitrile		reference: Ru(bpy)3(PF6)2	singlet oxygen quantum yield	0.62
